Measurements of several laboratories.
Parts stem from different laboratories: compare values within a part only. Substitutions count along the parent as printed.

Study 1
Target: FOSL2, bZIP domain (human)
Method: DHFR protein complementation
Sample: yeast
Setting: single substitutions, most at no-binding floor
Reference: wild-type JUN-FOS pair
Direction: higher = stronger binding
Endpoint: binding fitness
Parent: JUN, bZIP domain (human); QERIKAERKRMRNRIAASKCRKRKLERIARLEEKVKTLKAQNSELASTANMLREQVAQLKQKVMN; partner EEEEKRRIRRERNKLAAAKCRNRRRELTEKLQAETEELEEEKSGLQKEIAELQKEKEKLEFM
A46P: -1.45 natural log
T37Y: 0.034 natural log
N42Y: -0.573 natural log
A29D: 0.034 natural log
M51V: 0.0244 natural log
K39I: -0.333 natural log
S43H: 0.128 natural log
R30V: 0.249 natural log
A46K: 0.181 natural log
L38K: -1 natural log
K34V: -0.0358 natural log
N42M: -0.154 natural log
S47Q: 0.101 natural log
E32N: -0.155 natural log
K39S: -0.229 natural log
A46Q: 0.0479 natural log
T37K: 0.0563 natural log
A40K: 0.14 natural log
T48L: 0.0684 natural log

Study 2
Target: ABI1, truncated, D143A, DHFR fusion (Arabidopsis thaliana)
Method: DHFR PCA, deep sequencing
Sample: yeast
Setting: methotrexate growth selection, single substitutions
With: (+)-ABA 4.8 µM
Reference: wild-type fitted maximum
Direction: higher = stronger binding
Endpoint: relative binding score
Parent: PYL1, truncated, DHFR fusion (Arabidopsis thaliana); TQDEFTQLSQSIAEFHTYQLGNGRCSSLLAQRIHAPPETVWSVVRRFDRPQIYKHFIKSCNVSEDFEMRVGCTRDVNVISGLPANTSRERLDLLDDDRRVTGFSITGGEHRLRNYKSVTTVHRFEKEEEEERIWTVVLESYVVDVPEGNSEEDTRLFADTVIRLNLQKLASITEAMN
T101M: 80.2%
Y115K: -1.83%
T17I: 17.8%
K54T: -14%
D153N: 4.61%
D48E: 38.5%
L28T: 30.8%
N77F: 75.8%
E129M: 62.7%
T6A: 80.2%
T120K: 0.657%
V62L: 66.9%
V40R: -10.9%
Q19V: 70.2%
E64M: 55.1%
E67P: 58.7%
T39W: 33.7%
S104E: -5.87%

Study 3
Target: Histone acetyltransferase KAT6A, winged helix 1, GST fusion (KAT6A, Homo sapiens, UniProt Q92794, residues 1-85)
Method: protein binding microarray
Form: double-stranded DNA, one strand shown
Sample: in vitro
Tested at: not given
Setting: 8-mer, flanks averaged, mean of 2 arrays, mostly near background
Reference: not given
Direction: higher = stronger binding
Endpoint: E-score
Residues (chain): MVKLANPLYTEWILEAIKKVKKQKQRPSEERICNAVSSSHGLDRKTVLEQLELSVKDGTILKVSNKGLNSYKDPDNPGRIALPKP
GCTTCGTA: -0.06
AACTGCGC: 0.234
CGGAATAC: 0.113
ACATATCT: -0.107
AAATTAGA: -0.136
AACTTCTT: -0.234
CCTCTGCG: 0.00703
CTTCATAC: -0.0926
GATTATAA: -0.0185
ATGGAGGA: -0.0965
TGTCATAA: -0.227
AACGCTGT: -0.0505
AGACTGGC: -0.0898
AGATGTAC: -0.204
AGACCTTG: -0.141
GTTCCATA: 0.0406

Study 4
Target: CCNA2, cyclin fold, Cln2 fusion (human)
Method: yeast growth competition, sequencing
Sample: yeast
Setting: strong parent motif
Reference: not given
Direction: higher = stronger binding
Endpoint: normalised enrichment score
Parent: E2F1 docking peptide (human); PPVKRRLDLETDH
PPVKRDLDLETDH [R6D]: -1.03
PYVKRRLDLETDH [P2Y]: 2.76
PPVARRLDLETDH [K4A]: 4.1
PPVKRRLDLQTDH [E10Q]: 4.49
PPVKRGLDLETDH [R6G]: 0.38
PPFKRRLDLETDH [V3F]: 1.22
PPVHRRLDLETDH [K4H]: 2.18
PPVNRRLDLETDH [K4N]: 2.97
PPVKRRLDLATDH [E10A]: 3.9
PPVKRRLDLETDS [H13S]: 4.72
PPVKRRLDLFTDH [E10F]: 4.14
PPVKRRLDLETDR [H13R]: 4.03
PQVKRRLDLETDH [P2Q]: 3.26
MPVKRRLDLETDH [P1M]: 5.2
PPMKRRLDLETDH [V3M]: 0.921
PPVKRWLDLETDH [R6W]: 0.549
PPVKRRLDLETAH [D12A]: 4.57
PPVKRRLDLETDT [H13T]: 4.97
SPVKRRLDLETDH [P1S]: 1.54

Study 5
Target: UBE2Z UBC core domain (UniProt Q9H832)
Method: yeast two-hybrid
Sample: yeast
Setting: mostly zero background
Reference: not given
Direction: higher = stronger interaction
Endpoint: lacZ reporter activity
B1: TRIM26 RING domain (UniProt Q12899); chain PLRSLEEEVTCSICLDYLRDPVTIDCGHVFCRSCTTDVRPISGSRPVCPLCKKPFKKENIRP
B2: DEF8 RING domain (UniProt Q6ZN54); chain AGRLGCSLTEIHTLFAKHIKLDCERCQAKGFVCELCREGDVLFPFDSHTSVCADCSAVFHRDCYYDNSTTCPKCARLSLRK
B3: TRIM22 RING domain (UniProt Q8IYM9); chain VKVDIEKEVTCPICLELLTEPLSLDCGHSFCQACITAKIKESVIISRGESSCPVCQTRFQPGNLRP
B4: RNF187 RING domain (UniProt Q5TA31); chain ALPAGPAEAACALCQRAPREPVRADCGHRFCRACVVRFWAEEDGPFPCPECADDCWQRAVEP
B5: RNF166 RING domain (UniProt Q96A37); chain GDSGLEAQYTCPICLEVYHRPVAIGSCGHTFCGECLQPCLQVPSPLCPLCRLPFDPKKVDK
B6: TRIM31 RING domain (UniProt Q9BZY9); chain FVNKLQEEVICPICLDILQKPVTIDCGHNFCLKCITQIGETSCGFFKCPLCKTSVRKNAIRF
Residues (chain): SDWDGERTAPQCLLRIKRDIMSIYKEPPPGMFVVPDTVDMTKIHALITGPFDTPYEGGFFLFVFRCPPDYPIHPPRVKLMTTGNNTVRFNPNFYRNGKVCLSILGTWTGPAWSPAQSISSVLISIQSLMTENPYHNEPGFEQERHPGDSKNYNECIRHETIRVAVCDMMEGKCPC
B1 (TRIM26 RING domain): 0
LDAASGHPLVCPLCHGQYERPCLLDCFHDFCTGCLRGRATDGRLSCPLCQHQTLVKGPSG (Rnf207 RING domain (UniProt Q3V3A7)): 0
KPDKMEETLTCIICQDLLHDCVSLQPCMHTFCAACYSGWMERSSLCPTCRCPVERICKNH (CHFR RING domain (UniProt Q96EP1)): 0
B2 (DEF8 RING domain): 0
B3 (TRIM22 RING domain): 0
B4 (RNF187 RING domain): 0
B5 (RNF166 RING domain): 0
B6 (TRIM31 RING domain): 0
RYRQMEERITCPICIDSHIRLVFQCGHGACAPCGSALSACPICRQPIRDRIQIF (MIB2 RING domain (UniProt Q96AX9)): 0
MNDVLENELQCIICSEYFIEAVTLNCAHSFCSYCINEWMKRKIECPICRKDIKSKTYSL (RNF8 RING domain (UniProt O76064)): 0

Some of these lines once more (study 4):
PPVKRRLDLATDH [E10A]: 3.9
PPMKRRLDLETDH [V3M]: 0.921
PPVKRGLDLETDH [R6G]: 0.38
PPVKRRLDLETDR [H13R]: 4.03
PPVNRRLDLETDH [K4N]: 2.97
PPVKRRLDLETDT [H13T]: 4.97
PPVKRRLDLETDS [H13S]: 4.72
PPFKRRLDLETDH [V3F]: 1.22
PPVKRRLDLQTDH [E10Q]: 4.49
